Experimental data pooled from the literature.
A part holds a random share of what one study measured. Changes are numbered by the printed parent chain.

Sample 1
Target: ABI1, truncated, D143A, DHFR fusion (Arabidopsis thaliana)
Method: DHFR PCA, deep sequencing
Matrix: yeast
Setting: methotrexate growth selection, single substitutions
Together with: (+)-ABA 200 µM
Reference: wild-type fitted maximum
Reading: higher = stronger binding
Starting sequence: PYL1, truncated, DHFR fusion (Arabidopsis thaliana); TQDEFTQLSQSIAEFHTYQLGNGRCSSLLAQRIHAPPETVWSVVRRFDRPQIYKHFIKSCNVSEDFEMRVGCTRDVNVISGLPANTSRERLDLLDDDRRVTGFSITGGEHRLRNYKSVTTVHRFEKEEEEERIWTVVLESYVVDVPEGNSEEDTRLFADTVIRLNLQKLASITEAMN
Variant | relative binding score
G23F | 86.6%
I79V | 108%
L166S | -8.47%
Q7E | 95%
E151G | 93.8%

Sample 2
Target: Interferon regulatory factor 5, full length, phosphomimetic (IRF5, Homo sapiens, UniProt Q13568-2, residues 1-514, K96S/S451D/S453D/S456D/S462D)
Method: protein-binding microarray
Form: double-stranded DNA, one strand shown
Matrix: in vitro
Tested at: 250 nM
Setting: 60-bp whole probe
Together with: salmon DNA 0.4 mg/ml
Reference: random background probes
Reading: higher = stronger binding
Shared flanks, not repeated: GCCTAGCAC … GTCTTGATTCGCTTGACGCTGCTG
Strand | log fluorescence
CAAAAATGATTGGTTGAACAGTGCTAG | 0.551 z-score
GACGGTCTCGTTATCCTGACGTGCTAG | 0.115 z-score
CTAACTTTCCAATTGTCCTTGTGCTAG | 1.09 z-score
TTTCTTTTCCATTTTGTGTTGTGCTAG | 5.88 z-score
TTAGGTCTGGGTATCGGTTAGTGCTAG | 4.05 z-score
TTAGATTTCGGATATCGATTAGTGCTA | 5.32 z-score
TTAGAACTGCTACTGCTTTAGTGCTAG | -0.108 z-score
TATTACCTCATCTTTCCCTGCGTGCTA | 1.03 z-score

Sample 3
Target: CCNB3, cyclin fold, Cln2 fusion (human)
Method: yeast growth competition, sequencing
Matrix: yeast
Setting: weak parent motif
Reference: not given
Reading: higher = stronger binding
Starting sequence: CDC6 docking peptide (human); TLKGRRLVFDNQL
Variant | normalised enrichment score
L7Q | 0.303
V8C | 0.776
K3F | 0.147
V8T | 0.163
F9Y | -0.0565
Q12P | 0.118

Further values, each from its own experiment
Substance | target | assay | system | conditions | how to read | endpoint | result
PhoQ, residues 284 288 289 292 302 303 SACGEM | PhoP, residues 12 14 15 18 19 DLLYY (Escherichia coli, UniProt P23836) | Sort-seq, measured: YFP reporter | E. coli | PhoQ-PhoP variant library, together with: 10 µM Mg2+ | reference: high Mg2+ state, higher = stronger signaling | fold induction | 2.74
